Assay results from different studies.
Numbered parts are unrelated; each lists some results of a single study.
Chain of UniProt Q5XXA6 (whole entry, unmodified, looked up): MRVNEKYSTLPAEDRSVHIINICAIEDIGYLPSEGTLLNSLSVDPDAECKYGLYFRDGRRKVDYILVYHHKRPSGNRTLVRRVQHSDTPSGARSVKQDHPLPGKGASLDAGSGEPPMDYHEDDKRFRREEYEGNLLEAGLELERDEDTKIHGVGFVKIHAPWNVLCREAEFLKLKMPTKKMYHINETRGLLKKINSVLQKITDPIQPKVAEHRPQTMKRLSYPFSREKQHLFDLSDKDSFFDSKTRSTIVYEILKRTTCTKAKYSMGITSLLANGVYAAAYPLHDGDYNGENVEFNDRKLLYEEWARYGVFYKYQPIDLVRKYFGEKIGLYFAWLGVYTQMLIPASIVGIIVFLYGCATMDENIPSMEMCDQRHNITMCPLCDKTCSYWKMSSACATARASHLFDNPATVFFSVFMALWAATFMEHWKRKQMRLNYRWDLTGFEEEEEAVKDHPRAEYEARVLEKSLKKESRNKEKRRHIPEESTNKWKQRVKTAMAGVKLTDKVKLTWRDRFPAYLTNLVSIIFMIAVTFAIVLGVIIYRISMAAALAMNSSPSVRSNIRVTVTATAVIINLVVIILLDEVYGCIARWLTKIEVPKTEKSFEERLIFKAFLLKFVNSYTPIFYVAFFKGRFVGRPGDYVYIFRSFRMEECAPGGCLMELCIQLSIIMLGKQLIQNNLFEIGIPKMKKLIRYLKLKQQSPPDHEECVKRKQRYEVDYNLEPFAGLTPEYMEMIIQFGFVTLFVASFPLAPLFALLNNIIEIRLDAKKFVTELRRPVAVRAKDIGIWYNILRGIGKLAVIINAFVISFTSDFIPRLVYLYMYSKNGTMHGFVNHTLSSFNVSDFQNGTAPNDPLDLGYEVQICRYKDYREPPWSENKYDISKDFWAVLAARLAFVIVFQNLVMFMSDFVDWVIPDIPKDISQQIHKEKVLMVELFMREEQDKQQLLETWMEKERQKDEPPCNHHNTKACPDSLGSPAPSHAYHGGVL
Chain of UniProt P42338 (whole entry, looked up): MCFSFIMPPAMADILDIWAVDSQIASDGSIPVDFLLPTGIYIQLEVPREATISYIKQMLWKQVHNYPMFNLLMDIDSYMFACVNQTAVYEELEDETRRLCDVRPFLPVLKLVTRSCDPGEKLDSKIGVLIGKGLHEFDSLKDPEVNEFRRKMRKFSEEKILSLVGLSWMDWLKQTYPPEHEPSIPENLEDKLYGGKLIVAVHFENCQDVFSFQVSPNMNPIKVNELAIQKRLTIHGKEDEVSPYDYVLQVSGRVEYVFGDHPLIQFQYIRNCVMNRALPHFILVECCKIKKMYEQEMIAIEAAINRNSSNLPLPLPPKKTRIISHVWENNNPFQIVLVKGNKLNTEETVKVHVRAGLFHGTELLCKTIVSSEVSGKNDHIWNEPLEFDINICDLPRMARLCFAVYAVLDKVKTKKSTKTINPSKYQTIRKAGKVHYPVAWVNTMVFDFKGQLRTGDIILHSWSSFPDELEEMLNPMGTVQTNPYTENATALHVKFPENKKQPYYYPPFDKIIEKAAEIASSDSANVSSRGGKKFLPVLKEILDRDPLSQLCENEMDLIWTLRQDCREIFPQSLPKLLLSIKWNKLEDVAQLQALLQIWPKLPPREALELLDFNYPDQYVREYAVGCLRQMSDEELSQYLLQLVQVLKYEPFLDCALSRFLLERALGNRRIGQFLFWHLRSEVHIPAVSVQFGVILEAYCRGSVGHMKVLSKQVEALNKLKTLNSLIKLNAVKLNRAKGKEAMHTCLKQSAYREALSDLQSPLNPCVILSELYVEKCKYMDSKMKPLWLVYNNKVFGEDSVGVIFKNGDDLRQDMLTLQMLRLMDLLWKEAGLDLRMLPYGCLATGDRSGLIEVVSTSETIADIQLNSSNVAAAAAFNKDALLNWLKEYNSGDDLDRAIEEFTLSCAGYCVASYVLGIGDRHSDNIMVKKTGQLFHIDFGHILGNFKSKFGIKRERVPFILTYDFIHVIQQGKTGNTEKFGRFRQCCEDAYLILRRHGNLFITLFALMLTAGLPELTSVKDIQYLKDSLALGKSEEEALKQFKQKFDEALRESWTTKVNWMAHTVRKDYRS
Chain of UniProt Q96NX5 (whole entry, looked up): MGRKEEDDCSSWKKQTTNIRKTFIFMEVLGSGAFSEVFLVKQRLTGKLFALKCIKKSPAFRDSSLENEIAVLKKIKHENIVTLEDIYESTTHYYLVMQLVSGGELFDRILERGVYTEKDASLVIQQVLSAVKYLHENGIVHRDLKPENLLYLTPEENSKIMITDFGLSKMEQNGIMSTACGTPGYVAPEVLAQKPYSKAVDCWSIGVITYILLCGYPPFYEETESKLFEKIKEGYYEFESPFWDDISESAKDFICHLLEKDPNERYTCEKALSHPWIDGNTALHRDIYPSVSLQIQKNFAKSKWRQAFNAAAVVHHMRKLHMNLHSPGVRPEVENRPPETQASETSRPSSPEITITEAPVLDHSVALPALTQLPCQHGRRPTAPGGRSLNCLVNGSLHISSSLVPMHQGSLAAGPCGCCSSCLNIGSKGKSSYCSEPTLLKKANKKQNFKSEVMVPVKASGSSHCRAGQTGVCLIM
Chain of UniProt Q13546 (whole entry, looked up): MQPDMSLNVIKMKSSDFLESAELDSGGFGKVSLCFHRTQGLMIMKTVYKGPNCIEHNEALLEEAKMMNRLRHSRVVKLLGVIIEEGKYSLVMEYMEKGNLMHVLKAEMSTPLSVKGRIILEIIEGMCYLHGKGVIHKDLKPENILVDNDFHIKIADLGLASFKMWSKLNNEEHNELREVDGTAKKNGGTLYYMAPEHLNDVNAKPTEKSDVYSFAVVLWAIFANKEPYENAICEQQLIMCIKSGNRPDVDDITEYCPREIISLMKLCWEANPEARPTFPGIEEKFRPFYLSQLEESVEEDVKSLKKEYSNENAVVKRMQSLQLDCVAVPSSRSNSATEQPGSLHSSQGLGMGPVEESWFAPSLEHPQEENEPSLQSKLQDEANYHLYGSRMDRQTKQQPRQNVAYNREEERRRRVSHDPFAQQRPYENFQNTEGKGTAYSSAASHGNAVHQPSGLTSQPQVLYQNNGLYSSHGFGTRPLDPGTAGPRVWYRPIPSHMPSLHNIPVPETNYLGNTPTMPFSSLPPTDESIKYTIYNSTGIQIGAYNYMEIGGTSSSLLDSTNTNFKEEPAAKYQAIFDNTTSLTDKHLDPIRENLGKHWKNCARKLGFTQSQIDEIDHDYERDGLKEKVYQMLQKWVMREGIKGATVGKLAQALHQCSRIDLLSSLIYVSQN
Chain of UniProt P21127 (whole entry, looked up): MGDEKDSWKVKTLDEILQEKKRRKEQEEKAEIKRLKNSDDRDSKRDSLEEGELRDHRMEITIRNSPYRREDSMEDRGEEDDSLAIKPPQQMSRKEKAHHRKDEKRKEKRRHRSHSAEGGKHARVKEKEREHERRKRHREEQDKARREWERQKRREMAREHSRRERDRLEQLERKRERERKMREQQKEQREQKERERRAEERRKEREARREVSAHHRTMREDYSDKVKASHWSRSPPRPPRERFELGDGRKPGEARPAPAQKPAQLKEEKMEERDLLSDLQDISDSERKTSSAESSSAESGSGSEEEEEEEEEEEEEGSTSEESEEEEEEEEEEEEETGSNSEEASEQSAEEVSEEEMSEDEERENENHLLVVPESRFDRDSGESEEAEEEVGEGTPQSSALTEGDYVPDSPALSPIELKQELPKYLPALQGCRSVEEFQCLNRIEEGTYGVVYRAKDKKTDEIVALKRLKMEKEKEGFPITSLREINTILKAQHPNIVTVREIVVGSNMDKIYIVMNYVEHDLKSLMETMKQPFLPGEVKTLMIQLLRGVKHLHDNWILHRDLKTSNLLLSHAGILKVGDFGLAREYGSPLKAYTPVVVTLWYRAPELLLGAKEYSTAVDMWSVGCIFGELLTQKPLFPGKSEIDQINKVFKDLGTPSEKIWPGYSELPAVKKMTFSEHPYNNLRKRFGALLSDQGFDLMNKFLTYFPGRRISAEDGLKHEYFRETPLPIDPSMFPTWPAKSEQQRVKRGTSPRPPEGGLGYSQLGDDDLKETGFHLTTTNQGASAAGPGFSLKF

Series 1
SMILES: CCS(=O)(=O)c1cc2cc(C[C@](O)(CC(C)(C)c3ccc(F)cc3C(N)=O)C(F)(F)F)[nH]c2cn1
Read-out: cell-free assay
Method: competition with immobilised ligand
Tested at: 1 µM
Endpoint: remaining binding
MAP2K1 (Homo sapiens, UniProt Q02750): 91%
CDK11B (Homo sapiens, UniProt P21127): 100%
PIK3C2B (Homo sapiens, UniProt O00750): 89%
PI4KB (Homo sapiens, UniProt Q9UBF8): 100%
CDK14 (Homo sapiens, UniProt O94921): 100%
CSNK1G3 (Homo sapiens, UniProt Q9Y6M4): 100%
Tyrosine-protein kinase ABL1, non-phosphorylated (ABL1, Homo sapiens, UniProt P00519, F317L): 100%
HUNK (Homo sapiens, UniProt P57058): 100%
NTRK2 (Homo sapiens, UniProt Q16620): 100%
PKN1 (Homo sapiens, UniProt Q16512): 100%
MST1R (Homo sapiens, UniProt Q04912): 100%
RIPK1 (Homo sapiens, UniProt Q13546): 100%
CAMK1G (Homo sapiens, UniProt Q96NX5): 100%
SGK3 (Homo sapiens, UniProt Q96BR1): 89%
DCLK3 (Homo sapiens, UniProt Q9C098): 100%
MAP2K2 (Homo sapiens, UniProt P36507): 95%
PRKG1 (Homo sapiens, UniProt Q13976): 92%
PIK3CB (Homo sapiens, UniProt P42338): 98%
BRAF (Homo sapiens, UniProt P15056, V600E): 100%
PIK3C3 (Homo sapiens, UniProt Q8NEB9): 100%
NTRK3 (Homo sapiens, UniProt Q16288): 94%

Series 2
SMILES: C=CCc1ccc(O)c(-c2ccc(O)c(CC=C)c2)c1
Read-out: chloride current
Method: whole-cell voltage clamp
Endpoint: IC50
Anoctamin-1 (ANO1, Homo sapiens, UniProt Q5XXA6, del476-501); inhibitor; 100 mV voltage, added: 300 nM Ca2+: 6.37 µM
Anoctamin-1 (ANO1, Homo sapiens, UniProt Q5XXA6, del476-501/F803W); inhibitor; mutant F777W at 100 mV, added: 300 nM Ca2+: 7.43 µM
Anoctamin-1 (ANO1, Homo sapiens, UniProt Q5XXA6, del476-501/F807I); inhibitor; mutant F781I at 100 mV, added: 300 nM Ca2+: 7.5 µM
Anoctamin-1 (ANO1, Homo sapiens, UniProt Q5XXA6, del476-501/R631I); inhibitor; R605I mutant at -100 mV: 27.4 µM
Anoctamin-1 (ANO1, Homo sapiens, UniProt Q5XXA6, del476-501/M544A); inhibitor; pore pocket mutant M518A at 100 mV, added: 300 nM Ca2+: 4.62 µM
Anoctamin-1 (ANO1, Homo sapiens, UniProt Q5XXA6, del476-501/F807W); inhibitor; 40 mV holding voltage: 9.26 µM
Anoctamin-1 (ANO1, Homo sapiens, UniProt Q5XXA6, del476-501/F803I); inhibitor; 80 mV holding voltage: 7.81 µM
Anoctamin-1 (ANO1, Homo sapiens, UniProt Q5XXA6, del476-501/L548A); membrane voltage -40 mV: 5.92 µM

Series 3
Target: Ephrin type-A receptor 1 (EPHA1, Homo sapiens, UniProt P21709)
Chain of UniProt P21709 (whole entry, looked up): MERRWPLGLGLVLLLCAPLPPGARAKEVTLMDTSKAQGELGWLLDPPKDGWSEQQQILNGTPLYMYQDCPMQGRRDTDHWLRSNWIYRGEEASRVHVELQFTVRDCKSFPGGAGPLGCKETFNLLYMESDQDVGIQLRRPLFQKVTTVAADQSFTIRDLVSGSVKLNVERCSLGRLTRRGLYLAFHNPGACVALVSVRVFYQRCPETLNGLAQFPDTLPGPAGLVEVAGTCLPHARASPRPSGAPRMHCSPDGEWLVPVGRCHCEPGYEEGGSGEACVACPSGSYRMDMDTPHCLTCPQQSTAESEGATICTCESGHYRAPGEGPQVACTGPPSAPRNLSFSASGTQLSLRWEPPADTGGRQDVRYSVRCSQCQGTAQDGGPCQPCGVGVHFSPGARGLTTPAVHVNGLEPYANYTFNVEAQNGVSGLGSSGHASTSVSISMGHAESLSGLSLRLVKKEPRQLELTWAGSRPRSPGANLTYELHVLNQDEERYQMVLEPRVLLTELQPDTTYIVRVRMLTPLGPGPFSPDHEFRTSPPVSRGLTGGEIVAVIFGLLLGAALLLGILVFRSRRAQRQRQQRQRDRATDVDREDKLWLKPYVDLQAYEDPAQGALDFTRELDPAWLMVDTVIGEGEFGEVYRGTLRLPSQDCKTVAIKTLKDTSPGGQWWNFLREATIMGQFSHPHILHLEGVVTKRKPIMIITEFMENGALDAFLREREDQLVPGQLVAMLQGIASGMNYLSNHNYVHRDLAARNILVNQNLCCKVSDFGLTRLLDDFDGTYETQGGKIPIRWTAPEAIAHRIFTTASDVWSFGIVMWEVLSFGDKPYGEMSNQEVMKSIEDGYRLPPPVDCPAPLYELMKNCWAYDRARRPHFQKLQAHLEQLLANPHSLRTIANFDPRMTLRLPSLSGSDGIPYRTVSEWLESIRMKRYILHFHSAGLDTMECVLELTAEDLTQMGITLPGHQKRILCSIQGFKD
Read-out: enzyme activity
Action: inhibitor
Tested at: 0.5 µM
Baseline: control
Endpoint: remaining activity
O=C1Nc2ccc(Br)cc2/C1=C/c1cc2c([nH]1)CCCC2: 93.1%
O=C(c1cc2cc(O)ccc2[nH]1)c1cc2cc(O)ccc2[nH]1: 81.1%
CN1CCN(c2ccc3nc(-c4c(N)c5c(F)cccc5[nH]c4=O)[nH]c3c2)CC1: 90.6%
COc1cccc(-c2cc(=O)c3ccccc3o2)c1N: 99.7%
O=C1NC(=O)c2c1c1c3ccccc3[nH]c1n1cncc21: 72.4%
COc1ccc(COc2ccc(Cc3cnc(N)nc3N)cc2OC)cc1: 85.8%
CCCCc1c(-c2ccc(OC)cc2)[nH]c2nccnc12: 67.9%
COc1ccc2c(c1)c(C1=C(c3c[nH]c4ccccc34)C(=O)NC1=O)cn2CCCN(C)C: 76.2%
O=c1cc(N2CCOCC2)oc2c(-c3ccccc3)cccc12: 101%
Cc1cc(Nc2cc(N3CCN(C)CC3)nc(Sc3ccc(NC(=O)C4CC4)cc3)n2)[nH]n1: 78.1%
c1ccc(-c2n[nH]c3c2oc2ccccc23)cc1: 78.6%
O=C1NC(=O)c2c1c1c3ccccc3[nH]c1c1[nH]c3cc(Br)ccc3c21: 98.1%

Series 4
Species: human
Matrix: microsomes or S9
Tested at: 2 µM
Time: 0.5 h
Endpoint: remaining compound
CC(C)c1ccc(NC(=O)CCNS(=O)(=O)c2cc(Br)cnc2N)cc1: 1.08%
Cc1ccc(C2=CC(c3cccc(Cl)c3)n3ncnc3N2)cc1 (centres unmarked): 4.41%
CCN(CC)CCCOC(=O)C1(c2ccc(F)cc2)CCCC1: 81.1%
O=C(NCCc1nccs1)c1cc(-c2ccc(Br)s2)n[nH]1: 82.4%
Cc1ccc(Cl)cc1NC(=O)Cn1ncc2ccccc2c1=O: 57.7%
COc1ccc2c[nH]c(=O)c(-c3nc4ccccn4c3Nc3ccc(OC)c(OC)c3)c2c1: 87.9%
O=C(CS(=O)(=O)c1ccccc1)NC(c1ccccc1)c1ccccc1: > 100%
COc1cccc(N(Cc2n[nH]c(=O)[nH]2)C(=O)CCC2CCCC2)c1: 61.4%
C/C(=C\COc1ccc2ccc(=O)oc2c1)CC/C=C(\C)CCC(O)C(C)(C)O (centres unmarked): > 99%
COc1cc(-c2nc(C)c(C(=O)NCCc3ccc(S(N)(=O)=O)cc3)s2)cc(OC)c1OC: 41.3%
CCc1ccc2ncc3c(-c4ccc(F)cc4)n[nH]c3c2c1: 1.98%
Brc1c[nH]nc1-c1nc2c3ccccc3ncn2n1: > 99%
